# Published values pooled from the literature.
# Parts stem from different laboratories: compare values within a part only. Substitutions count along the parent as printed.

# Sample 1
# Target: Sal-like protein 4, full length isoform B (SALL4, Homo sapiens, UniProt Q9UJQ4-2, residues 1-616)
# Technique: universal PBM
# Form: double-stranded DNA, one strand shown
# Matrix: in vitro
# Tested at: not given
# Notes: 8-mer, flanks averaged, mean of replicates
# Direction: higher = stronger binding
# Target sequence (chain): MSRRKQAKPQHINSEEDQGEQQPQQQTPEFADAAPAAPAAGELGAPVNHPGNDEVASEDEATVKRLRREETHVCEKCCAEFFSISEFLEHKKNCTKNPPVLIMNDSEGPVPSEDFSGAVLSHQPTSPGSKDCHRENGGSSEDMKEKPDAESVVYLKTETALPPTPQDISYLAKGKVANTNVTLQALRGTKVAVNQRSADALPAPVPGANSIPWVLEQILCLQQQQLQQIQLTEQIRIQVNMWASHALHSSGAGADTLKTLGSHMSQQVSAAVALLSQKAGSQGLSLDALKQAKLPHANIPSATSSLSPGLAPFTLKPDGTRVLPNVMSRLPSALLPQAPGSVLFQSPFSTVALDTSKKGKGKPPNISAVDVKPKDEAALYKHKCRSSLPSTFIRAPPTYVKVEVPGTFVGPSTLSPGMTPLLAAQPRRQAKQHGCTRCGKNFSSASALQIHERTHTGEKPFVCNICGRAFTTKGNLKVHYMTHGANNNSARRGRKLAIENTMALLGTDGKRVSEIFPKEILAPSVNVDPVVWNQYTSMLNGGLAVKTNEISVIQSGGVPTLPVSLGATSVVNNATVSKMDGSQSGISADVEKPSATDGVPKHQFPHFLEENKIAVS
Sequence,E-score
CGTTAAGA,0.0428
AGGGTCTC,-0.146
ACGAACTG,-0.163
ATATTGCA,0.323
TCGTTCAA,0.172
GTTATTTA,0.301
ACATAGCG,0.177
CGAGAGTA,0.0929
GACGTTAA,0.184
GTAAAATA,0.306
AGTATGAG,0.222
AGTTGTTC,0.0687
AAAAGGAG,-0.00246
ACGGAAGA,-0.0169
ATGTTACG,0.189
CGGTATAA,0.155
AGTACTTC,0.218

# Sample 2
# Target: Hepatocyte nuclear factor 3-alpha (Foxa1, Mus musculus, UniProt P35582, residues 1-468, full length assumed)
# UniProt P35582, sequence (whole entry, looked up): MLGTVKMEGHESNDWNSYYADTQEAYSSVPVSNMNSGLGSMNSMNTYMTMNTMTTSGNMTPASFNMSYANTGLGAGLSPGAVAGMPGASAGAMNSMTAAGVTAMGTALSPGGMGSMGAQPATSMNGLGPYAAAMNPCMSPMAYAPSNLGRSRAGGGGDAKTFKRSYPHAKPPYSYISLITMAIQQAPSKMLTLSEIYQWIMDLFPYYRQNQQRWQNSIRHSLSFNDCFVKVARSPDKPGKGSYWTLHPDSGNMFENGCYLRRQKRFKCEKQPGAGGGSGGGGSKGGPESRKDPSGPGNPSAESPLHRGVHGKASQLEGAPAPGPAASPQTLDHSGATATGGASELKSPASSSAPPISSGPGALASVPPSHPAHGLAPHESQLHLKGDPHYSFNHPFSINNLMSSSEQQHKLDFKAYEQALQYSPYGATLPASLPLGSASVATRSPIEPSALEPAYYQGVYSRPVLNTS
# Technique: EMSA with sequencing
# Form: double-stranded DNA, one strand shown
# Matrix: in vitro
# Tested at: 10 and 20 nM
# Notes: whole designed probe, mean of two concentrations, ends assumed
# Relative to: negative control set to 0
# Direction: higher = stronger binding
Sequence,normalised bound fraction
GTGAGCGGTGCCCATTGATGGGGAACCCCTCATCCTGGGTGTCGGGGTGGGAGGTGTTCTCATCATGAATGGGAGGCGTACCCAGATCCAGCTCTGCCTTTTTTGTGACTCACCAGAGTGTAAACAAATGGCTGTGTGTCACACCATAATCGACATAGCAAGATATGATACATGCCAGGAGAGAAAAAGAAAGTGCTGATGGAAAAATAATCTCATTAGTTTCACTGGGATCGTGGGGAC,0.463 ratio
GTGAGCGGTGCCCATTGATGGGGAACATTGAAGAACAAACAGCTATTGCCCAGCCCAGAAAGAGCCACCTCTTGGTAACTCCTGTGTGTGACATAAACTCATACCAGCAGTATCACAGAGCAATCTGCATAAACTCTGAATGCCACTCACAAATTGCTTTGCCAATAATAGTTCCAGGATGTACTGTTCTTCCAATGGGCTTAACAAACATTTCGATGCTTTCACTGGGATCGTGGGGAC,0.126 ratio
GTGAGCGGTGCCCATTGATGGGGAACAGTCATTCTGATATTCACATTTCTTGTCTTACGGGATTAAAAATCCAGGTAAAGCCTAACATCAGACATAACATGTGTATTTCACCATTTTACATGTTTACTTTTTGAAATATCTTAAAATAAGCCTAATTTGGATAAAAGTAGGTAATTTAGGACTGGGGTCCAGTAAGGAAATATTACCTCTAGTGCTTCCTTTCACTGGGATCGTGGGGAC,0.259 ratio
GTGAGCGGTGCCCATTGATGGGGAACTAATTTGGCTTTCCTTGTAAAACTCTTTTTAATTTTTAATTTTAAATGCCATGTAATACACTTGTTCTCTCTTTGAACTGAGATTTATCAATGTAATCTAGAAGAACAATTCAATTCATTAAATTAAAGAGGATATTTGTTCCAGGCTGAAAAATTAAGTGGTTTACTACACATAAATATAAAATTTCCTTCATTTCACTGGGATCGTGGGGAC,-0.0307 ratio
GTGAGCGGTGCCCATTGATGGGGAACGAACAGATGGATGCAGACACAGCGTTTGGTTCTGAAGGTTTTTAAGAGTTATGGCTTCATCTCTTGATCAGGCCAACAAGGCCTACTACCCTATGTAATCTACGGCTTTCCCTCAAAGGGAGGGCCCCACACTGCTCTCCACTCTTATCATTTTGTGGCTCTCTCCTCCTCACCCACCCACCCCAATCCTGGCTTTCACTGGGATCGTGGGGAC,-0.0896 ratio
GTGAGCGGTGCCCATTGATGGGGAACAATGGGCTCCTGGGAACAGAAGCAACAGCTGCGTGGAGGGTGAGGACAAGCTGACATTTAGAAATATTCTGGTCAAGAGTTCCAATTGGTGTTTGTTTGCTGAGGGCGCTGGTGTGAAGCCCGGCTGAGTCATGAGGTTGGACAGACAGTCCAGGAGCGGCTGAGTAAGGCAAGGTGGGGAAGGGCACATGCTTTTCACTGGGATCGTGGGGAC,0.264 ratio
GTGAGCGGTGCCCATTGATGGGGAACTCTGCTGCAGGGCTTGCAGGAACAAATGTTTACAGCCCCTAGGCGGCAGGGGGAGCATCTCCCCTCTGAGTTATGAGCTTTAGAGGCTCCTGTGTAATTTTTTACCTCTCTAGAGCATTGGTGACCGTGGGAGATCGGGATCTGTAAGCACTGAGGTTTTCTGTTTGCGTCATCGTGGCCAGGGTGGGGTGGGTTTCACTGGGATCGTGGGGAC,-0.0235 ratio
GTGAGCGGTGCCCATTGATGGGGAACATCTTCCCCCTCTTCCTTGCCCCACCAGCTCACCTTCCCGGGTTATTTGCAGATAGGAAAATAAATAAAGCCGGCATTCGTTAACCCTCTTCTGGCGCAAACTGCTGTTTGCTCTGGATGAATCATGGTCCTTTGGCGAGGCGTGGCTCCGGGAGAGCAAAGCACCGTGTCAGGGCCATGATCCGGGCTCGCCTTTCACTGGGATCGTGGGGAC,0.34 ratio

# Sample 3
# Target: UBE2E2 UBC core domain (UniProt Q96LR5)
# UniProt Q96LR5, sequence (whole entry, looked up): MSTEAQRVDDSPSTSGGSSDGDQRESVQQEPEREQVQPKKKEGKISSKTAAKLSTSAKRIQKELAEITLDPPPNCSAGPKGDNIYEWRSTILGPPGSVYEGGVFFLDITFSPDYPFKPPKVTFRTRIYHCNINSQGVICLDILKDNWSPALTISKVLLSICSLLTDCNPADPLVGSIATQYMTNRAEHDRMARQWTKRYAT
# Technique: yeast two-hybrid
# Matrix: yeast
# Notes: mostly zero background
# Relative to: not given
# Direction: higher = stronger interaction
# B1: TRIM4 RING domain (UniProt Q9C037); chain EAEDIQEELTCPICLDYFQDPVSIECGHNFCRGCLHRNWAPGGGPFPCPECRHPSAPAALRP
# B2: TRIM13 RING domain (UniProt O60858); chain MELLEEDLTCPICCSLFDDPRVLPCSHNFCKKCLEGILEGSVRNSLWRPAPFKCPTCRKETSATGINS
# B3: VPS41 RING domain (UniProt P49754); chain KGVLVDEENICESCLSPILPSDAAKPFSVVVFHCRHMFHKECLPMPSMNSAAQFCNICSAKNRGPGSAI
# B4: RNF208 RING domain (UniProt Q9H0X6); chain SSAAAGEPLECPTCGHSYNVTQRRPRVLSCLHSVCEQCLQILYESCPKYKFISCPTCRRETVLFTDYG
# B5: TRIM5 RING domain (UniProt Q9C035); chain ILVNVKEEVTCPICLELLTQPLSLDCGHSFCQACLTANHKKSMLDKGESSCPVCRISYQPENIRP
# B6: DTX4 RING domain (UniProt Q9Y2E6); chain QKVRHPPDEDCTICMERLTAPSGYKGPQPTVKPDLVGKLSRCGHVYHIYCLVAMYNNGNKDGSLQCPTCKTIYGVKTGTQ
# B7: TRIM40 RING domain (UniProt Q6P9F5); chain LQKDNQEEGVCPICQESLKEAVSTNCGHLFCRVCLTQHVEKASASGVFCCPLCRKPCSEEVLG
# B8: SH3RF2 RING domain (UniProt Q8TEC5); chain DDLTLLDLLECPVCFEKLDVTAKVLPCQHTFCKPCLQRVFKAHKELRCPECRTPVFSNIEAL
# B9: TRIM43 RING domain (UniProt Q96BQ3); chain FSHAFQKELTCVICLNYLVDPVTICCGHSFCRPCLCLSWEEAQSPANCPACREPSPKMDFKT
Molecule,lacZ reporter activity
B1 (TRIM4 RING domain),0
ASLPTSEEDLCPICYAHPISAVFQPCGHKSCKACINQHLMNNKDCFFCKTTIVSVEDWE (RNF123 RING domain (UniProt Q5XPI4)),0
B2 (TRIM13 RING domain),0
B3 (VPS41 RING domain),0
B4 (RNF208 RING domain),0
B5 (TRIM5 RING domain),0
MPIRALCTICSDFFDHSRDVAAIHCGHTFHLQCLIQWFETAPSRTCPQCRIQVGKRTIIN (TRAIP RING domain (UniProt Q9BWF2)),0
B6 (DTX4 RING domain),0
B7 (TRIM40 RING domain),0
B8 (SH3RF2 RING domain),0
B9 (TRIM43 RING domain),0
DHGAVGQEMCCPICCSEYVKGEVATELPCHHYFHKPCVSIWLQKSGTCPVCRCMFPPPL (PJA1 RING domain (UniProt Q8NG27)),0
VEPSEENSKDCVVCQNGTVNWVLLPCRHTCLCDGCVKYFQQCPMCRQFVQESFALC (CGRRF1 RING domain (UniProt Q99675)),0

# Sample 4
# Target: CCNA2, cyclin fold, Cln2 fusion (human)
# Technique: yeast growth competition, sequencing
# Matrix: yeast
# Notes: strong parent motif
# Relative to: not given
# Direction: higher = stronger binding
# Starting sequence: CDKN1A docking peptide (human); SKACRRLFGPVDS
Substitution,normalised enrichment score
SKACRCLFGPVDS [R6C],4.9
SKACKRLLGPVDS [R5K F8L],0.3
SKACRRLFGPVVS [D12V],5.17
SKACRRLFGSVDS [P10S],5.69
SKACRRLFGPVPS [D12P],5.4
SKACRKLFGPVDS [R6K],5.05
SSACRRLFGPVDS [K2S],5.35
SKACLRLFGPVDS [R5L],0.96
SKACRRFFGPVDS [L7F],0.757
SKACRRLFGPLDS [V11L],5.44
SKACRRTFGPVDS [L7T],0.409
SKACRRLFNPVDS [G9N],5.35
SWACRRLFGPVDS [K2W],3.08
SMACRRLFGPVDS [K2M],4.83
SYACRRLFGPVDS [K2Y],4.21
SKACRRLFGPVLS [D12L],4.7
SKACRRLQGPVDS [F8Q],0.0185

# Sample 5
# Target: ABI1, truncated, D143A, DHFR fusion (Arabidopsis thaliana)
# Technique: DHFR PCA, deep sequencing
# Matrix: yeast
# Notes: methotrexate growth selection, single substitutions
# With: (+)-ABA 0.39 µM
# Relative to: wild-type fitted maximum
# Direction: higher = stronger binding
# Starting sequence: PYL1, truncated, DHFR fusion (Arabidopsis thaliana); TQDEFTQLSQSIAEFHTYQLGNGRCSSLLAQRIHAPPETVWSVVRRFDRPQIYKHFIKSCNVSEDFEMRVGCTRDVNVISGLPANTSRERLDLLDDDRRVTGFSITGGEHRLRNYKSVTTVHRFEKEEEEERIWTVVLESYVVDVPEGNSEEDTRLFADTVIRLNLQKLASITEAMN; partner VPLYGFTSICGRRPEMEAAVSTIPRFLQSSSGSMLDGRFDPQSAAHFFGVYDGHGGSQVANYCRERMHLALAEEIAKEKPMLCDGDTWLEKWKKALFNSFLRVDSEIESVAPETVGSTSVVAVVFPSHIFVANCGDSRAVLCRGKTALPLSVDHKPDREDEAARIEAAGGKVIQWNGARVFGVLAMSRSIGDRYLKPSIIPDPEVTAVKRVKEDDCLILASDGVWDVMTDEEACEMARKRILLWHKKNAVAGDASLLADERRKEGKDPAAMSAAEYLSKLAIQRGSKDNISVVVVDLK
Substitution,relative binding score [%]
S104L,-1.89
R132H,49.3
T86L,23.3
L28Y,-2.14
S9H,45.7
E139H,13
N149M,51.7
E147A,26.2
E109C,10.6
L164Y,20.3
Y115M,-8.66
S42Q,41.9
G21V,42.1
L138P,-6.57
S117H,8.19
E127A,54.7
F103T,-9.65
R45S,-4.57

# Excerpt of the above (sample 4):
Substitution,normalised enrichment score
SKACRRLQGPVDS [F8Q],0.0185
SKACRKLFGPVDS [R6K],5.05
SKACRRLFGPVPS [D12P],5.4
SKACRRLFGPVVS [D12V],5.17
SKACRRLFGPVLS [D12L],4.7
